Results pooled from the literature.
Each line is one published result; not all experiments were run side by side. Numbers after ± are the reported error.

| Structure (SMILES) | assay | test system | setting | how to read | quantity | result |
| --- | --- | --- | --- | --- | --- | --- |
| O=C(CP(c1ccccc1)c1ccccc1)[O][Ti+2][O]C(=O)CP(c1ccccc1)c1ccccc1.c1cc[cH-]c1.c1cc[cH-]c1 | – | DMSO/water 1:99 | 5 x 10 µM | – | pH | 5.52 |
| Cc1ccc(OCC(=O)N(Cc2cccs2)c2ccn[nH]2)cc1 | – | CD-1 mouse, both sexes, bone marrow polychromatic erythrocytes | oral, 500, 1000, 2000 mg/kg | – | micronucleus formation | negative |
| CC[C@H](C)[C@@H]1NC(=O)[C@H](CCCNC(=N)N)NC(=O)[C@H](CCCCN)NC(=O)[C@H](Cc2ccc(O)cc2)NC(=O)[C@H](CC(C)C)NC(=O)[C@@H]2CCCN2C(=O)[C@H](C)NC(=O)CNC(=O)CNC(=O)[C@H](CO)NC(=O)CNC(=O)CNC(=O)[C@H](CO)NC(=O)[C@H](CCC(=O)O)NC(=O)[C@H](CC(C)C)NC(=O)[C@H](CC(C)C)NC(=O)[C@H](CCCCN)NC(=O)[C@H](CCCCN)NC(=O)[C@H]([C@@H](C)CC)NC(=O)[C@H]([C@@H](C)CC)NC(=O)[C@H](CCCNC(=N)N)NC(=O)[C@H](CCCCN)NC(=O)[C@H](Cc2ccc(O)cc2)NC(=O)[C@H](CC(C)C)NC(=O)[C@@H]2CCCN2C(=O)CNC(=O)CNC(=O)[C@@H](NC(=O)CN)CSSC[C@@H](C(N)=O)NC(=O)[C@H](CC(C)C)NC(=O)[C@H](CCCCN)NC(=O)[C@H](CCCCN)NC(=O)[C@H]([C@@H](C)CC)NC1=O | hemolysis | uninfected human erythrocytes | 1 h | – | HC10 | 34.1 ± 4.8 µM |
| CN[C@](C)(C[18F])C(=O)O | – | SCID mouse A549 xenograft, spleen | 30 min, post injection | – | tissue uptake | 10 ± 3.1 %ID/g |
| CC(=CCC(O)C(C)=Cc1csc(C)n1)CC=CC(C)C(O)C(C)C(=O)C(C)(C)C(O)CC(=O)O (stereo not drawn) | – | human, plasma | intravenous infusion, 36 mg/m2 KOS-1584, 3 h infusion, cycle 1 | – | AUC | 562 ± 446 ng·h/mL |
| [2H]C([2H])([2H])C([2H])([2H])C([2H])([2H])OC(C(=O)OC1CCNCC1)(c1ccccc1)c1ccccc1 | – | healthy Japanese male subjects, plasma | oral, 12 mg, day 1, mean | – | tmax | 4 h |
| CC(C)[C@H](NC(=O)CNC(=O)[C@H](CCC(N)=O)NC(=O)[C@H](C)N)C(=O)O | – | healthy male volunteers | intravenous, 45 mg/kg/h, 2 h, together with: LPS 2 ng/kg | – | subjects with Possibly related AE | 0% |
| N=C(N)NCc1ccc(C(=O)NCCCC[C@H](NC(=O)N[C@@H](CCC(=O)O)C(=O)O)C(=O)O)cc1[211At] | – | SCID mouse, PC-3 xenografts, stomach | 2 h | – | tissue uptake | 2.55 ± 0.69 %ID/g |
| O=P1(NCCCl)NCCCO1 (stereo not drawn) | – | rat, plasma | intravenous, 10 mg/kg, together with: ketoconazole 40 mg/kg oral 50 min before | – | MRT(0-inf) | 7.7 ± 0.921 h |
| NC(=O)[C@@H](O)C[C@H]1CCc2sc3ncnc(O[C@H]4CC[C@H](N5CCOCC5)CC4)c3c21 | – | NOD/SCID mice, OCI-Ly10 xenograft | intraperitoneal, 100 mg/kg/day twice daily, 14 days | – | body weight | not toxic |
| CSCC[C@@H]1NC(=O)[C@@H]2CSSC[C@H](NC(=O)[C@H](CO)NC(=O)[C@H](C)N)C(=O)N[C@@H](CCCNC(=N)N)C(=O)N[C@@H]([C@@H](C)O)C(=O)N3CCC[C@H]3C(=O)N[C@@H](CCCCN)C(=O)N[C@@H](CC(=O)O)C(=O)N[C@H]3CSSC[C@H](NC(=O)[C@H](CCCCN)NC(=O)[C@H](CCCNC(=N)N)NC(=O)[C@H](CC(N)=O)NC1=O)C(=O)N[C@@H](CCCCN)C(=O)N[C@H]1CSSC[C@H](NC(=O)[C@@H]4CCCN4C(=O)[C@H](CC(=O)O)NC(=O)[C@H](C)NC3=O)C(=O)N[C@@H](C)C(=O)N[C@@H](CCCCN)C(=O)N[C@@H](CCC(=O)O)C(=O)N[C@@H]([C@@H](C)O)C(=O)NCC(=O)N[C@@H](CSSC[C@@H](C(N)=O)NC(=O)[C@H](CCCNC(=N)N)NC(=O)[C@H](CC(N)=O)NC1=O)C(=O)N1CCC[C@H]1C(=O)N[C@@H](Cc1ccc(O)cc1)C(=O)NCC(=O)N[C@@H](CCCCN)C(=O)N2 | – | DA rat pristane-induced arthritis, serum | subcutaneous, 0.1 mg/kg single dose at onset, 21 days | – | Magnesium | 2.04 mg/dL |
| O=c1cc(-c2ccccc2)oc2c(Br)c(O)c(O)c(O)c12 | – | C57BL/6 mouse, plasma | po, 150 mg/kg | – | Ctrough | 53.9 ± 54 ng/mL |
| CN(C)C(CNC(=O)Nc1cc(C(F)(F)F)ccc1N1CCOCC1)c1ccncc1 (stereo not drawn) | – | mouse, serum | intraperitoneal, 180 mg/kg single dose | – | serum chloride | 111 mmol/L |
| CC[C@H](C)C(=O)N1CCC(NC(=O)Nc2ccc(OC(F)(F)F)c(F)c2)CC1 | – | healthy volunteers | oral, 24 mg single dose, ventricular extrasystoles | – | subjects with extrasystoles TEAE | 0% |
| CCN(CC)CCOc1ccc(-c2nnn(Cc3ccc(OC)cc3)c2N)cc1 | – | Beagle dog | oral, 4 weeks daily | – | NOAEL | 80 mg/kg |
| CC[C@H](C)[C@H](NC(=O)[C@H](CCC(=O)O)NC(=O)[C@H](CCC(=O)O)NC(=O)[C@H](Cc1ccccc1)NC(=O)[C@H](CC(=O)O)NC(=O)CNC(=O)[C@H](CC(N)=O)NC(=O)CNC(=O)CNC(=O)CNC(=O)CNC(=O)[C@@H]1CCCN1C(=O)[C@H](CCCNC(=N)N)NC(=O)[C@@H]1CCCN1C(=O)[C@H](N)Cc1ccccc1)C(=O)N1CCC[C@H]1C(=O)N[C@@H](CCC(=O)O)C(=O)N[C@@H](CCC(=O)O)C(=O)N[C@@H](Cc1ccc(O)cc1)C(=O)N[C@@H](CC(C)C)C(=O)O | – | healthy Chinese male volunteers, plasma | intravenous, 0.5 mg/kg | – | AUC(0-t) | 1480 ± 278 ng·h/mL |
| COCC(=O)NCCSc1c(-c2ccc(Br)cc2)[nH]c2ccccc12 | – | rat | oral | – | oral bioavailability | 11% |
| COC(=O)C[C@](O)(CCCC(C)(C)OC(C)=O)C(=O)O[C@@H]1C(OC)=C[C@]23CCCN2CCc2cc4c(cc2[C@H]13)OCO4 | – | CD1 mouse, heart | oral, 1 mg/kg, 2 h | – | tissue concentration | 171 ng/mL |
| CC[C@@H]1C[C@]1(NC(=O)[C@@H]1C[C@@]2(CN1C(=O)[C@@H](NC(=O)[C@@H](NC(=O)[C@@H]1CCCCN1C(C)C)C1CCCCC1)C(C)(C)C)C(C)(C)C21CCC1)C(=O)NS(=O)(=O)N1CCCC1 | – | human | together with: ritonavir co-administration | – | tolerability | not toxic |
| O=C(c1ccc(F)cc1)C1CCN(C2Cc3c(cccc3OCC[18F])CC2O)CC1 (single isomer, unassigned; (-)) | – | Sprague-Dawley rat, male, muscle | intravenous, dose not given, 60 min | – | tissue uptake | 0.253 ± 0.044 %ID/g |
| C/C(=N\OCCCN1CCCCC1)c1ccc(C(F)(F)F)cc1 | metabolic stability | human, liver microsomes | – | – | half-life | 1.69 h |
| NC(=O)CC[C@@H]1NC(=O)[C@H](Cc2ccccc2)NC(=O)[C@H](Cc2ccc(O)cc2)NC(=O)[C@@H](N)CSSC[C@@H](C(=O)N2CCC[C@H]2C(=O)N[C@@H](CCCN=C(N)N)C(=O)NCC(N)=O)NC(=O)[C@H](CC(N)=O)NC1=O | radioimmunoassay | Sprague-Dawley rat, plasma | intra-arterial, 20 ng/kg, 5 min | relative to: 1 min post-injection | plasma level reduction | ~70% |
| CCCC[C@H](NC(=O)CCOCCOCCNC(=O)CN1CCN(CC(=O)O)CCN(CC(=O)O)CCN(CC(=O)O)CC1)C(=O)N[C@H]1CC(=O)NCCCC[C@@H](C(N)=O)NC(=O)[C@H](Cc2c[nH]c3ccccc23)NC(=O)[C@H](CCCNC(=N)N)NC(=O)[C@@H](Cc2ccccc2)NC(=O)[C@H](Cc2c[nH]cn2)NC1=O [gallium-68 labelled] | radio-HPLC | mouse, plasma | intravenous, 8 to 12 MBq, 5 min post injection | – | intact compound | > 99% |
| CCOP(=O)(OCC)OCCCCOC(=O)CC1=C(C)C(=Cc2ccc([S+](C)[O-])cc2)c2ccc(F)cc21 (stereo not drawn) | HPLC | nude mice, orthotopic lung tumour, tumour | inhalation, dose not given | – | drug level | > 10 nmol/g |
| COc1cc2ncnc(Oc3cccc(N[11C](=O)Nc4cc(C(C)(C)C(F)(F)F)on4)c3)c2cc1OC | radio-HPLC | female Balb/c nude mice, urine | intravenous, 30 min | relative to: radioactivity | metabolites in urine | 98% |
| Cc1ccc(/C=C/C(=O)O)cc1-c1cc2c(cc1C)C(C)(C)CCC2(C)C | – | Sprague-Dawley rat, male, plasma | oral, 100 mg/kg, 1 h, sesame oil vehicle | – | LDL level | 27 ± 8 mg/dL |
| CCCCCCCC(=O)OC[C@H](NC(=O)[C@H](CO)NC(=O)CN)C(=O)N[C@@H](Cc1ccccc1)C(=O)N[C@@H](CC(C)C)C(=O)N[C@@H](CO)C(=O)N1CCC[C@H]1C(=O)N[C@@H](CCC(=O)O)C(=O)N[C@@H](Cc1cnc[nH]1)C(=O)N[C@@H](CCC(N)=O)C(=O)N[C@@H](CCCNC(=N)N)C(=O)N[C@H](C(=O)N[C@@H](CCC(N)=O)C(=O)N[C@@H](CCC(N)=O)C(=O)N[C@@H](CCCNC(=N)N)C(=O)N[C@@H](CCCCN)C(=O)N[C@@H](CCC(=O)O)C(=O)N[C@@H](CO)C(=O)N[C@@H](CCCCN)C(=O)N[C@@H](CCCCN)C(=O)N1CCC[C@H]1C(=O)N1CCC[C@H]1C(=O)N[C@@H](C)C(=O)N[C@@H](CCCCN)C(=O)N[C@@H](CC(C)C)C(=O)N[C@@H](CCC(N)=O)C(=O)N1CCC[C@H]1C(=O)N[C@@H](CCCNC(=N)N)C(=O)O)C(C)C | – | human, plasma | intravenous infusion, 1, 3 and 5 µg/kg/h | – | time to steady state | 45 min |
| CCCCCCCC(=O)NCCCC[C@H](NC(=O)[C@H](Cc1ccccc1)NC(=O)[C@@H](CCCNC(=N)N)NC(=O)[C@@H](N)Cc1ccc(O)cc1)C(N)=O | – | mouse, CD-1, male, plasma | intravenous, 3 mg/kg | – | terminal elimination rate constant | 0.00915 min⁻¹ |
| CCC(C)n1c(C(=O)Nc2cnc(C(=O)NC)n(CC(C)C)c2=O)ncc(NC(=O)c2ncc(NC(=O)c3ccccc3)c(=O)n2Cc2ccc(OC)cc2)c1=O (stereo not drawn) | – | MOLT-4, zebrafish embryo xenograft | 500 nM, 48 h | – | developmental toxicity | not toxic |
| CC(C)[C@H](NC(=O)CNC(=O)[C@H](CCC(N)=O)NC(=O)[C@H](C)N)C(=O)O | moderate intensity | human | 20 mg/kg, 3 days, thrice daily dosing | – | subjects with adverse events | 16.7% |

Excerpt of the above:
| Structure (SMILES) | assay | test system | setting | how to read | quantity | result |
| --- | --- | --- | --- | --- | --- | --- |
| C/C(=N\OCCCN1CCCCC1)c1ccc(C(F)(F)F)cc1 | metabolic stability | human, liver microsomes | – | – | half-life | 1.69 h |
| NC(=O)CC[C@@H]1NC(=O)[C@H](Cc2ccccc2)NC(=O)[C@H](Cc2ccc(O)cc2)NC(=O)[C@@H](N)CSSC[C@@H](C(=O)N2CCC[C@H]2C(=O)N[C@@H](CCCN=C(N)N)C(=O)NCC(N)=O)NC(=O)[C@H](CC(N)=O)NC1=O | radioimmunoassay | Sprague-Dawley rat, plasma | intra-arterial, 20 ng/kg, 5 min | relative to: 1 min post-injection | plasma level reduction | ~70% |
